Results collected from several papers.
Lines come from different studies, so protocols differ.
Cell line: Vero

SMILES	assay	conditions	scale	measurement	value
CCCCCCC/C=C/C(=O)N1C(=O)/C(=C(\O)c2ccncc2)C(=O)C1CC(C)C (stereo not drawn)	cytotoxicity, CellTiter-Glo	72 h, 50% viability reduction		IC50	116 µg/mL
CCCCCCCCCCCCCCCCCCCC(=O)NS(=O)(=O)OC[C@H]1O[C@@H](n2cnc3c(N)ncnc32)[C@H](O)[C@@H]1O	cytotoxicity, MTT	72 h		IC50	0.07 µM
CCCCCCC/C=C/C(=O)N1C(=O)/C(=C(\O)C2CCNCC2)C(=O)C1CC(C)C (stereo not drawn)	cytotoxicity, CellTiter-Glo	72 h, 50% viability reduction		IC50	115 µg/mL
CC(C)C[C@@H](CN1CCCCC1)N(C)c1ccnc2cc(C(F)(F)F)ccc12	cell growth or viability, resazurin	72 h		CC50	42.6 µM
O=c1cc(C(F)(F)F)[nH]c2cc(C(F)(F)F)cc(Nc3ccc(C(F)(F)F)cn3)c12		30 µM, 24 h	baseline: SDS control	LDH release	~20%
CC(C)C[C@@H](CN1CCCC1)N(C)c1ccnc2cc(C(F)(F)F)ccc12	cell growth or viability, resazurin	72 h		CC50	52 µM
CCCCCCCCCC[C@H](C)C(=O)NS(=O)(=O)OC[C@H]1O[C@@H](n2cnc3c(N)ncnc32)[C@H](O)[C@@H]1O	cytotoxicity, MTT	72 h		IC50	14.5 µM
CCN(CC)CCCC(C)Nc1ccnc2cc(Cl)ccc12 (stereo not drawn)	cell growth or viability, MTT	72 h		CC50	492 µM
O=c1c(O)c(-c2cc(O)c(O)c(O)c2)oc2cc(O)cc(O)c12	cell growth or viability, MTT	24 h		CC50	~1100 µM
CCOC(=O)C1=C(C)N2NC(c3ccccc3O)N(C(Cc3c[nH]c4ccccc34)C(=O)O)C2=NC1c1ccc(Cl)cc1 (stereo not drawn)	cell viability, MTT	72 h, 10% fetal bovine serum		CC50	125 µg/mL
CCCCCCC/C=C/C(=O)N1C(=O)/C(=C(\O)c2ccccc2)C(=O)C1CC(C)C (stereo not drawn)	cytotoxicity, CellTiter-Glo	72 h, 50% viability reduction		IC50	12.5 µg/mL
CCCc1ccc(C(=O)Nc2cc3nc(C4CCCCC4)[nH]c3cc2N(C)C)cc1	cytotoxicity, Alamar Blue	3 days, 37 °C		IC50	> 100 µg/mL
Nc1ncnc2c1ncn2[C@@H]1O[C@H](COS(=O)(=O)NC(=O)CCCCCCCCCCO)[C@@H](O)[C@H]1O	cytotoxicity, MTT	72 h		IC50	27 µM
O=C(CCc1ccccc1)Nc1cc2nc(C3CCCCC3)[nH]c2cc1N1CCCC1	cytotoxicity, Alamar Blue	3 days, 37 °C		IC50	> 100 µg/mL
O=C1C(=Cc2ccccc2Cl)CCCC1=Cc1ccccc1Cl	cell growth or viability, MTT	72 h		CC50	171 µM
CN(C)c1cc2[nH]c(C3CCCCC3)nc2cc1NC(=O)c1ccccc1	cytotoxicity, Alamar Blue	3 days, 37 °C		IC50	> 100 µg/mL
CC(C)C[C@@H](CN1CCOCC1)N(C)c1ccnc2cc(C(F)(F)F)ccc12	cell growth or viability, resazurin	72 h		CC50	68.6 µM
CCCCOC(=O)Nc1cc2nc(C3CCCCC3)[nH]c2cc1N(C)C	cytotoxicity, Alamar Blue	3 days, 37 °C		IC50	> 100 µg/mL
CCCCC(=O)N1C(=O)/C(=C(/C)O)C(=O)C1CC(C)C (stereo not drawn)	cytotoxicity, CellTiter-Glo	72 h, 50% viability reduction		IC50	39.7 µg/mL
CCN(CC)C[C@H](CC(C)C)N(C)c1ccnc2cc(Cl)ccc12	cell growth or viability, resazurin	72 h		CC50	60.3 µM
CCCCC/C=C\CCCC(=O)NS(=O)(=O)OC[C@H]1O[C@@H](n2cnc3c(N)ncnc32)[C@H](O)[C@@H]1O	cytotoxicity, MTT	72 h		IC50	14.3 µM
CN(C)c1cc2[nH]c(C3CCCCC3)nc2cc1NC(=O)c1cccs1	cytotoxicity, Alamar Blue	3 days, 37 °C		IC50	> 100 µg/mL
CCCCCCC/C=C/C(=O)N1C(=O)/C(=C(\O)c2ccc(F)cc2)C(=O)C1CC(C)C (stereo not drawn)	cytotoxicity, CellTiter-Glo	72 h, 50% viability reduction		IC50	13.4 µg/mL
CCOc1ccc(C(=O)Nc2cc3nc(C4CCCCC4)[nH]c3cc2N(CC)CC)cc1	cytotoxicity, Alamar Blue	3 days, 37 °C		IC50	> 100 µg/mL
CN(c1ccnc2cc(Cl)ccc12)[C@@H](Cc1ccccc1)CN1CCCC1	cell growth or viability, resazurin	72 h		CC50	57.8 µM
CCN(CC)c1cc2[nH]c(C3CCCCC3)nc2cc1NC(=O)c1ccc(C)cc1	cytotoxicity, Alamar Blue	3 days, 37 °C		IC50	> 100 µg/mL
C/C(O)=C1\C(=O)C(CC(C)C)N(C(=O)CCCCCc2ccccc2)C1=O (stereo not drawn)	cytotoxicity, CellTiter-Glo	72 h, 50% viability reduction		IC50	11.2 µg/mL
CN(CCCN1CCOCC1)c1ccnc2cc(C(F)(F)F)ccc12	cell growth or viability, resazurin	72 h		CC50	> 200 µM
CCCCCCC/C=C/C(=O)N1C(=O)/C(=C(/C)O)C(=O)C1CCCCN (stereo not drawn)	cytotoxicity, CellTiter-Glo	72 h, 50% viability reduction		IC50	164 µg/mL
Cc1ccc(C(=O)Nc2cc3nc(C4CCCCC4)[nH]c3cc2N(C)C)cc1	cytotoxicity, Alamar Blue	3 days, 37 °C		IC50	> 100 µg/mL

Some of these lines once more:
SMILES	assay	conditions	scale	measurement	value
CCCCCCC/C=C/C(=O)N1C(=O)/C(=C(\O)c2ccc(F)cc2)C(=O)C1CC(C)C (stereo not drawn)	cytotoxicity, CellTiter-Glo	72 h, 50% viability reduction		IC50	13.4 µg/mL
CCOc1ccc(C(=O)Nc2cc3nc(C4CCCCC4)[nH]c3cc2N(CC)CC)cc1	cytotoxicity, Alamar Blue	3 days, 37 °C		IC50	> 100 µg/mL
CN(c1ccnc2cc(Cl)ccc12)[C@@H](Cc1ccccc1)CN1CCCC1	cell growth or viability, resazurin	72 h		CC50	57.8 µM
CCN(CC)c1cc2[nH]c(C3CCCCC3)nc2cc1NC(=O)c1ccc(C)cc1	cytotoxicity, Alamar Blue	3 days, 37 °C		IC50	> 100 µg/mL
C/C(O)=C1\C(=O)C(CC(C)C)N(C(=O)CCCCCc2ccccc2)C1=O (stereo not drawn)	cytotoxicity, CellTiter-Glo	72 h, 50% viability reduction		IC50	11.2 µg/mL
